Measurements of several laboratories.
Every numbered part comes from another study and shows a few of its results, in no order.

Series 1
Target: RNA binding protein fox-1 homolog 2, RRM domain, GST-SBP tag (RBFOX2, Homo sapiens, UniProt O43251-10, residues 100-194)
Technique: RNA Bind-n-Seq
Molecule type: RNA
Sample: in vitro
Concentration: 365 nM
Notes: natural RNA segment, single round, ends assumed
Reference: no-protein control
Reading: higher = stronger binding
Target sequence (chain): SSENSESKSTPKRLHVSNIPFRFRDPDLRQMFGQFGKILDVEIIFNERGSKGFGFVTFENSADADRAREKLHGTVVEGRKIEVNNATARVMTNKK
Oligonucleotide | RBNS enrichment (R)
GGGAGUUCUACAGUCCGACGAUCCACCCUCGAGCGGGGUUCCCCUCAUUGUACAGAUGGGGCAGGACCCAGCACGCUGCUGGCAGAGAUGGUUUGAGAACACAUCCAAGCCAGUCCCCCCAGCCCAGCUUCCCUGGAAUUCUCGGGUGCCAA | 0.235
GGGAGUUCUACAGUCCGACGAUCGUGGGUUCAGAGGGCAAUUUCUCUUUUAUGUGUACAUAUGCUAAAUAAACAUAAUUUAAAAAACAUGCGUGUCUGGAACCUAUGUUGAUUGAGUGGCUGGUAUUGAGAGCUGGAAUUCUCGGGUGCCAA | 1.42
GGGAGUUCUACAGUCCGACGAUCACUGUAAACAUUGCUUAAUUUUUUUGCUCUUGAUUUAAAAAAAAGUUUUGUUGAAAGCGCUAUUGAAUAUUGCAAUCUAUAUAGUGUAUUGGAUGGCUUCUUUUGUCACCUGGAAUUCUCGGGUGCCAA | 0.232
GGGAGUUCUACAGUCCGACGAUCACAUGUCUACCAAAAAAUGAUGUGGAGGUUUAGGUGGGAUUCACCCUUAGUACAAUUCUUAGUGUCAAUAGCACAGCACCCCAGCUUGUACAAGUCAUUCUCUGUUAGGAUGGAAUUCUCGGGUGCCAA | 0.394
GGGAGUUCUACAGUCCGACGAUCCUUCUCCCUCAGGCAACCCCGACAGACAGUGGCACUCCUGGUCCUGCUGUCUUGGUUUUGUCUUGGCUCUGGGAGGACUCUGAGGGGCAGUGCUCAGUUCAGACAAGGGGUGGAAUUCUCGGGUGCCAA | 0.389
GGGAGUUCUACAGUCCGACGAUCUUCUGGUAGCAAAUUAACUUUACAUCCUUUUUCCUACUUGUUAUGGUUGUUUGGACCGAUAAGUGUGCUUAAUCCUGAGGCAAAGUAGUGAAUAUGUUUUAUAUGUUAUGUGGAAUUCUCGGGUGCCAA | 0.427
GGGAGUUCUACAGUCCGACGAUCUGGAGAAAUUACCAAGAUUUUAACAUCUAUAAAAUUGGUAUGUCUUAAAAGUUAUUUCAAAAAUCCUGUGAAGCAUCUGAAACUGGCUAGAACCAGUAACACUGAGACAUUGGAAUUCUCGGGUGCCAA | 1.11
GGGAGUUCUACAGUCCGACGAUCCUUCACCUUUCUGUCUGAAAUACAACUGUGGCUUUUGCAGUAGAAGACUAUGUUGGUGGUUUCAUUGUGUUCUGGGGUCUGGGGUGGGAAAGAAAAAGAAAAAGCUGUACUGGAAUUCUCGGGUGCCAA | 0.956
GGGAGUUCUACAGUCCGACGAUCACCCUGGGAAACACACCAAUCACCAACUUGCUCAUGACAUUGCUUCAGCUCCCUGAGAAGUAGCUCUUCCUCCAGGGCAUGGAAGGAUGGGAGGCCAGCAGGACCCUGCCUGGAAUUCUCGGGUGCCAA | 0.791
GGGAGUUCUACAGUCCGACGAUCUUUUGGUAACUAAUGUUUUAUGGCACUUAAGAAUAAUUAGCAGCGUUAAAUUUUGUUUGUAUUAAGCACUUUUAAUUUUAUCCUUCCUAAAAAUAGUUUAUUGUAUCUGAUGGAAUUCUCGGGUGCCAA | 12.5
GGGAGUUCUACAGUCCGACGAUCUUCAGAAAAUUGCUUUUGCCUUUUUCAUGAAUGUUAAGCAGCAGCAUUGUGAGAUCGAUCUGUCCUGGCAGUUAACACAAUGUGCAACAGUGUGUUAGCAUGGAACAGAAUGGAAUUCUCGGGUGCCAA | 0.332
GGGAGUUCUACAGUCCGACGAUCAAAGUACUGUAGUUUACAGGUAGGCCUUGAAAUAUCUUUUUUAGGAUCUGUUAGGAAUAAGAUUGAUAUUGUAUUGUGUGUAACCUGCACAAUGUGGAAAGCUGAUAUACUGGAAUUCUCGGGUGCCAA | 1.35

Series 2
Target: Histone acetyltransferase KAT6A, both winged helices, GST fusion (KAT6A, Homo sapiens, UniProt Q92794, residues 1-181)
Technique: protein binding microarray
Molecule type: double-stranded DNA, one strand shown
Sample: in vitro
Concentration: not given
Notes: 8-mer, flanks averaged, mean of 2 arrays, mostly near background
Reference: not given
Reading: higher = stronger binding
Construct (chain): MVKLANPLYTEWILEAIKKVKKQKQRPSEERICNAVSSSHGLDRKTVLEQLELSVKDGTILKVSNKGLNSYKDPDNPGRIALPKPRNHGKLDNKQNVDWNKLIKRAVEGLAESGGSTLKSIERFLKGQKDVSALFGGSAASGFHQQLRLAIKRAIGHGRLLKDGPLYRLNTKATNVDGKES
Oligonucleotide | E-score
ATAGCAAC | -0.188
GCGGCACC | 0.283
GATAACCC | -0.0772
GCTTGGCA | -0.143
CAATGCAG | -0.00414
TCAACCGA | 0.143
ATGGCCTG | -0.153
ACTTGACA | -0.154
CTGATCGC | 0.0654
CGGGCGGC | 0.346
ATCGGTAG | 0.141
AATCTATA | -0.0311
GCCGACAC | 0.21
GCGTAATA | 0.163
AAACTGGG | -0.271
CCAGGAAG | -0.0849
ATGGCAAG | -0.0843
CCGTGCAG | 0.13
ATCTGGAC | -0.0965
GGTCCAAA | -0.0846
CCAAATGC | -0.187
GTGCCGGA | 0.143
TTCCCAAA | -0.287
AACTTCGT | -0.108
ACGAGCCT | -0.0244

Series 3
Target: Prothrombin, mature alpha-thrombin (F2, Homo sapiens, UniProt P00734)
Technique: aptamer microarray, sandwich
Molecule type: DNA with 2'F-ANA
Sample: in vitro
Concentration: 200 nM
Notes: whole 15-mer aptamer, many near background
With: Cy3 exosite-II aptamer, 400 nM
Reading: higher = stronger binding
Oligonucleotide: GGTTGGTGTGGTTGG
Modification | mean fluorescence intensity
2'F-ANA at 1 6 8 9 10 11 14 15 | 51.8 a.u.
2'F-ANA at 2 5 6 7 9 10 12 13 | 50 a.u.
2'F-ANA at 2 3 6 9 10 11 13 | 294 a.u.
2'F-ANA at 1 2 4 5 6 7 8 10 12 13 15 | 58.9 a.u.
2'F-ANA at 1 4 11 | 99.9 a.u.
2'F-ANA at 2 4 5 6 8 9 10 11 | 54 a.u.
2'F-ANA at 1 2 4 6 7 9 10 12 15 | 61.6 a.u.
2'F-ANA at 2 5 6 7 9 15 | 76.4 a.u.
2'F-ANA at 2 3 4 5 8 9 11 14 | 55.6 a.u.
2'F-ANA at 1 5 8 14 | 58.8 a.u.
2'F-ANA at 2 5 8 9 13 15 | 57.5 a.u.
2'F-ANA at 4 6 7 8 9 14 15 | 84.1 a.u.
2'F-ANA at 2 4 8 9 10 12 14 15 | 74.9 a.u.
2'F-ANA at 1 2 4 5 8 11 12 14 | 68.3 a.u.
2'F-ANA at 2 7 12 15 | 852 a.u.
2'F-ANA at 1 3 5 6 7 8 10 12 13 15 | 55.9 a.u.
2'F-ANA at 1 2 3 6 7 8 12 14 | 101 a.u.
2'F-ANA at 1 3 4 10 11 12 14 | 50.6 a.u.
2'F-ANA at 2 4 6 9 10 11 12 13 14 15 | 60 a.u.
2'F-ANA at 2 5 7 8 9 10 | 71.1 a.u.
2'F-ANA at 8 9 10 11 12 | 189 a.u.
2'F-ANA at 2 8 10 11 12 13 14 | 77.3 a.u.
2'F-ANA at 2 5 6 10 11 12 13 14 15 | 60.9 a.u.
2'F-ANA at 1 4 5 6 7 10 12 13 14 15 | 46.3 a.u.

Series 4
Target: RING finger protein unkempt homolog, zinc fingers 1-6, GST-SBP tag (UNK, Homo sapiens, UniProt Q9C0B0, residues 30-357)
UniProt Q9C0B0, sequence (30-357, looked up): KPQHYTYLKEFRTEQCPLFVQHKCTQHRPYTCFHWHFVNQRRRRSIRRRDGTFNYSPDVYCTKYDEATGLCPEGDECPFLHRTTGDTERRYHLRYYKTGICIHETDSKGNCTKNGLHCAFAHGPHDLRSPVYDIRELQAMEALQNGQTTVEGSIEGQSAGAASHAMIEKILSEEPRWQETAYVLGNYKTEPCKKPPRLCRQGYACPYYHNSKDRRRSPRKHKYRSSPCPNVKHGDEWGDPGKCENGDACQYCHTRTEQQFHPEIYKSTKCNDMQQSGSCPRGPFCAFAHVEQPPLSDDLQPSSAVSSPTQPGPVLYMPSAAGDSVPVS
Technique: RNA Bind-n-Seq
Molecule type: RNA
Sample: in vitro
Concentration: not given
Notes: RNA with constant flanks, ends assumed
Reference: input RNA pool
Reading: higher = stronger binding
Oligonucleotide | bound/input enrichment [ratio]
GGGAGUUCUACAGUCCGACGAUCUCAACUCUAGCCAAGGAGGCAGAAAGGAAUUCUUAUCGCCUAAGCUGGGGCACUGAGAACUCCGACAACGUGGCUCUUUCUUCUAGUCCUAUUCAUUCAGGUUUCCUGGUUAGUUUUAUGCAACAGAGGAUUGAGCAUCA | 2.28
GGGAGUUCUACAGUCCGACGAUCCUGUCUGAUAUCAUGGUCUCGCUGGCAAAUGCUUCAACCUUACAGAAUGAUUCCAGUUGGACCGAAACAAUAAGGAAGUUUGUGACGGAGACCCUUAAAGGUGGCACUAGAUUGAACAGUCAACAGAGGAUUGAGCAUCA | 0.36
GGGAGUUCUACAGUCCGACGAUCACUCAGAAGCCAGUUCAUCAGCUCUUUGAUUACAUUUGUGGUGUAAGCACAGGUGCCAUAUCCGCUUUCAUGUUGGGGUUGUUUCAUAUGCCCUUGGAUGAAUGUGAGGAACUUUAUCGACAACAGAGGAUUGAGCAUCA | 0.111
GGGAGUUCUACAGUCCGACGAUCAAGAUUGAUGACAUUCGUAAGCCUGGAGAAUCUGAAGAAUGAAGACAUUGAGAAAACUAUGCCGCAAGAUCCACUUCUGUGAUUAAGUAAAUGGAUGUCUCGUGAUGCAUCUACAGUUAUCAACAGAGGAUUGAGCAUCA | 0.223
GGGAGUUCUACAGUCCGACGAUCCGGCCCCGUGACCCUAGUCGGCCGCUGAGAGGCGCGCGGAGUCUGGGCCGCUGCCGUCCCGGGGUCCCGUCCCGAGGCGUCCCCGGCAUCUCCGGCCCGAAUCCCGGAGUGCCGGGUCGCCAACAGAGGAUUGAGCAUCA | 0.44
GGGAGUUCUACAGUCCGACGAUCCUUCAAUUUUUAAAAGGCAAAACAUUGUUCAAAGCUUAAAGUUUUGAGCUUGAAACACCGUUCCGAUUUAAACAGUUGUAUGGGAACACAUCCUCUGCUUUAUACAGUUGGAAGUCCUCCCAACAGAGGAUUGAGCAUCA | 0.131
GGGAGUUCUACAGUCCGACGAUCUUCGGUGCCAUUGGCUUCUUCUGGGUUGAGUAAAUUGUCAGAUACUGCUCAUCAUUUGCAACCGUUUUCCCUGAGUGAGGCUGAAGCCUCAGGUUCCUUCAAAACACGCUAUCUAGAGAGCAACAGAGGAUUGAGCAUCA | 0.224
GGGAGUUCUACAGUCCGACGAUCCUGGGCUGCUCGGGUUAGAUCGUCAGGAAAAGCCUAAAGAUUAGACUGUAAGAAAAGAAAACCGAAGCCAUGUUUCGAAGACCUGUAUUACAGGUACUUCGUCAGUUUGUAAGACAUGAGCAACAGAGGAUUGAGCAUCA | 0.497
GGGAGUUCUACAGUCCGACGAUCAAGGUCUUUAAUGUUGCCAUCCCCCGAUUCCACAUGGCAUGUCCAACAUUCAGGGUGUCUACCGCUCGAUUGGAAAUGGGUCCUGAUGAAUAUGAAGAGAUGGAGGAGGAAGCUGAGGAGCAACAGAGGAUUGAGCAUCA | 0.14
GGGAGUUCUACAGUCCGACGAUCUCAACCAAAGAUGUACAUAAAGGAGAGUCUGGAAGCCAGGAAGCGGCAGUAAACAGUUUCCGCUCUUCCGUUGGUCACCCUGUGACCUCGACUGUUAUUUCACAGCCUAAAAGCUUUGACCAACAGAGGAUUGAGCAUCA | 0.111
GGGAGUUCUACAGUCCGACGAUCGAAUACCAUCUGGCUGAUCUUGCAUCCUUAAUGGACAAAGCGUAUGAAAGAAAAUUGCCUGUCCGUUCUUUAUCAAUAUCACGGUUUGUGGACAACAUUGCAUCCCGAGAAGAUCUAGAUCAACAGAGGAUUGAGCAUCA | 0.158

Single results of other studies
Substance | target | test | test system | conditions | how to read | endpoint | result
PhoQ, residues 284 288 289 292 302 303 TGYLSA | PhoP, residues 12 14 15 18 19 IFFTR (Escherichia coli, UniProt P23836) | Sort-seq, refers to: YFP reporter | E. coli | PhoQ-PhoP variant library, with: 10 µM Mg2+ | reference: high Mg2+ state, higher = stronger signaling | fold induction | 0.162

For quick reference, copied from above (series 2):
Oligonucleotide | E-score
GCTTGGCA | -0.143
AAACTGGG | -0.271
GCGGCACC | 0.283
CCAAATGC | -0.187
ATAGCAAC | -0.188
TTCCCAAA | -0.287
